Measurements from different studies.
Every numbered part comes from another study and shows a few of its results, in no order.

Study 1
Target: RNA binding protein fox-1 homolog 2, RRM domain, GST-SBP tag (RBFOX2, Homo sapiens, UniProt O43251-10, residues 100-194)
Technique: RNA Bind-n-Seq
Molecule type: RNA
Medium: in vitro
Tested at: 365 nM
Setting: natural RNA segment, single round, ends assumed
Reference: no-protein control
Direction: higher = stronger binding
Residues (chain): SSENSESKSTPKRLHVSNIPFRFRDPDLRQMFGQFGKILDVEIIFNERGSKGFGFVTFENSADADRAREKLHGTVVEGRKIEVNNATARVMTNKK
Strand	RBNS enrichment (R)
GGGAGUUCUACAGUCCGACGAUCUUUUUUUUUUUAAUUGGAAUUUACCAGUUUAUUGUUUAGCAGUAAUUACCCCAGGUAACACUGGGCAAAAAUCUGGGGUGCAUAAUAGGGAAUUCUGAAUUCUUAGAUUUUGGAAUUCUCGGGUGCCAA	1.05
GGGAGUUCUACAGUCCGACGAUCGGGAGCCCCCAUGCACAGGAAGCCACAGGGUUCCUCUUGUUUCCCCCGCUAACUUCAGCCUCUCAUCUGCUGCUCCGGGCUGAGGGACUAGAGGACAUCUCGGUCGUUUGUGGAAUUCUCGGGUGCCAA	0.462
GGGAGUUCUACAGUCCGACGAUCAAAAGUCUACUUUUCCAUCUAACUAGAUUGAGACUGGAUUCUUUAGCCCAGUCUUCCUUAGUCUCUGGACCUAGAAGGGACCAUUGGAGAAGCAGGCUCUGCUUCUCUGUUGGAAUUCUCGGGUGCCAA	0.203

Study 2
Target: Interferon regulatory factor 5, full length, phosphomimetic (IRF5, Homo sapiens, UniProt Q13568-2, residues 1-514, K96S/S451D/S453D/S456D/S462D)
Technique: protein-binding microarray
Molecule type: double-stranded DNA, one strand shown
Medium: in vitro
Tested at: 250 nM
Setting: 60-bp whole probe
With: salmon DNA 0.4 mg/ml
Reference: random background probes
Direction: higher = stronger binding
Strand	log fluorescence
GCCTAGCACGACGGTTTTCTTTCCCTGACGTGCTAGGTCTTGATTCGCTTGACGCTGCTG	1.04 z-score
GCCTAGCACTTAGATTCCAGTTTCGATTAGTGCTAGGTCTTGATTCGCTTGACGCTGCTG	9.49 z-score
GCCTAGCACATAGGTATCGACACTGGGTTAGTGCTAGTCTTGATTCGCTTGACGCTGCTG	1.92 z-score

Study 3
Target: RING finger protein unkempt homolog, zinc fingers 1-6, SBP tag (UNK, Homo sapiens, UniProt Q9C0B0, residues 30-357)
Chain of UniProt Q9C0B0 (30-357, looked up): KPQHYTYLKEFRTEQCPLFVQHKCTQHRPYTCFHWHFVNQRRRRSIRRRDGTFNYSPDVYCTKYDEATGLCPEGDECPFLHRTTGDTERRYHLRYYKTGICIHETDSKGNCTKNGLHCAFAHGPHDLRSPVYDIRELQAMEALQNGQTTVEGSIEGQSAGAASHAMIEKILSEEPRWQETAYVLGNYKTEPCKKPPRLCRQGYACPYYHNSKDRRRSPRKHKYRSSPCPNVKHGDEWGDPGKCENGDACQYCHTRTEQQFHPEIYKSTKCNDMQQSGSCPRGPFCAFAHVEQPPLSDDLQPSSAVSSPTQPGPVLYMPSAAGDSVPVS
Technique: RNA Bind-n-Seq
Molecule type: RNA
Medium: in vitro
Tested at: 100 nM
Setting: RNA with constant flanks, vertebrate orthologous sites, ends assumed
Reference: input RNA pool
Direction: higher = stronger binding
Strand	bound/input enrichment [ratio]
GGGAGUUCUACAGUCCGACGAUCGCUAUUAAUGCACUGUAUUCCAGGCAUCGUCUGAAUUUUAGUGUAAUCUAGGAGAUUUUAUAAUUUUAUUUUAAUGAAGUAUGGAUUGAUGCAGAGUUGUUAGCAGUCUGUAGUCUUUUACAACAGAGGAUUGAGCAUCA	1.09
GGGAGUUCUACAGUCCGACGAUCUCAGUCUUCCACUUAGGGUCGGCCUCAAAUCUAUAGGAUCUAUGACAAAUGUAUUAUAUCUAGUUAAGUUGAGUUUAAUAUUUUUUUAUUAGCCUGUAAAUAAAGAUGGCAUCUUCUACACAACAGAGGAUUGAGCAUCA	0.533
GGGAGUUCUACAGUCCGACGAUCCUAUAAUUAUGAAAAUCUAAAGGAUUUUUAAUGUUUAAUUUCCCCCAACAUGUUAAGACACCUUUUUCCAGGCAGAUCAUUUGGAGUGUGCGAGUGUGUGUGCACAUGUUACAAAGACAUCAACAGAGGAUUGAGCAUCA	0.234

Other studies, line by line
Substance	target	test	test system	conditions	scale	quantity	result
PhoQ, residues 284 288 289 292 302 303 SSCLAV	PhoP, residues 12 14 15 18 19 TTLRV (Escherichia coli, UniProt P23836)	Sort-seq, refers to: YFP reporter	E. coli	PhoQ-PhoP variant library, with: 10 µM Mg2+	reference: high Mg2+ state, higher = stronger signaling	fold induction	8.66

For quick reference, copied from above (study 3):
Strand	bound/input enrichment [ratio]
GGGAGUUCUACAGUCCGACGAUCCUAUAAUUAUGAAAAUCUAAAGGAUUUUUAAUGUUUAAUUUCCCCCAACAUGUUAAGACACCUUUUUCCAGGCAGAUCAUUUGGAGUGUGCGAGUGUGUGUGCACAUGUUACAAAGACAUCAACAGAGGAUUGAGCAUCA	0.234
